{"data": "Assay results gathered from unrelated publications", "note": "Every numbered part comes from another study and shows a few of its results, in no order. Changes are numbered by the printed parent chain."}
{"data": "Series 1", "target": "Histone acetyltransferase KAT6A, winged helix 2, GST fusion (KAT6A, Homo sapiens, UniProt Q92794, residues 85-181)", "method": "protein binding microarray", "molecule type": "double-stranded DNA, one strand shown", "medium": "in vitro", "concentration": "not given", "setting": "8-mer, flanks averaged, mean of 2 arrays, mostly near background", "relative to": "not given", "reading": "higher = stronger binding", "Target sequence (chain)": "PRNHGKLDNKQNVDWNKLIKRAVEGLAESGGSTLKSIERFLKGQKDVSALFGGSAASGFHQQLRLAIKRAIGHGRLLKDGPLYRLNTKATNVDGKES"}
{"Strand": "GCCGGACC", "E-score": 0.0936}
{"Strand": "CCGGGTTA", "E-score": -0.0291}
{"Strand": "GGCGCGAC", "E-score": 0.31}
{"Strand": "GGTTTGCA", "E-score": 0.0692}
{"Strand": "GGGTTTCA", "E-score": 0.0172}
{"Strand": "AATGGGCT", "E-score": -0.073}
{"Strand": "CTGGTTTC", "E-score": 0.162}
{"Strand": "GGAGTAAA", "E-score": 0.0901}
{"Strand": "CTTCTCTC", "E-score": 0.0174}
{"Strand": "CCAGGGTA", "E-score": -0.0242}
{"Strand": "CACGACGA", "E-score": -0.0368}
{"Strand": "GACTTAAC", "E-score": -0.146}
{"Strand": "TCCAATCA", "E-score": 0.0622}
{"Strand": "ACTTAAAT", "E-score": -0.0837}
{"Strand": "CGTAGACC", "E-score": -0.136}
{"Strand": "GAGATCCA", "E-score": -0.00388}
{"Strand": "TACTCCGA", "E-score": 0.00621}
{"Strand": "GTTTCCAA", "E-score": -0.0185}
{"Strand": "TAACTGGA", "E-score": -0.0512}
{"Strand": "ATACGGTC", "E-score": -0.123}
{"Strand": "CCGGCAGA", "E-score": 0.173}
{"Strand": "ACCCAGGC", "E-score": 0.283}
{"Strand": "AGTACGTC", "E-score": -0.12}
{"Strand": "ATGCTCCG", "E-score": -0.00183}
{"Strand": "AGAGGAAG", "E-score": -0.0322}
{"data": "Series 2", "target": "ABI1, truncated, D143A, DHFR fusion (Arabidopsis thaliana)", "method": "DHFR PCA, deep sequencing", "medium": "yeast", "setting": "methotrexate growth selection, single substitutions", "together with": "(+)-ABA 0.032 µM", "relative to": "wild-type fitted maximum", "reading": "higher = stronger binding", "parent": "PYL1, truncated, DHFR fusion (Arabidopsis thaliana); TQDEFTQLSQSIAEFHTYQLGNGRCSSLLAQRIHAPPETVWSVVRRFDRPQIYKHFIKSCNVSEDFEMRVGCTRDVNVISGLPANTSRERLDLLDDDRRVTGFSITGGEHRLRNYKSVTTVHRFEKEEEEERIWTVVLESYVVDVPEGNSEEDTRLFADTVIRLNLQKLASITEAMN; partner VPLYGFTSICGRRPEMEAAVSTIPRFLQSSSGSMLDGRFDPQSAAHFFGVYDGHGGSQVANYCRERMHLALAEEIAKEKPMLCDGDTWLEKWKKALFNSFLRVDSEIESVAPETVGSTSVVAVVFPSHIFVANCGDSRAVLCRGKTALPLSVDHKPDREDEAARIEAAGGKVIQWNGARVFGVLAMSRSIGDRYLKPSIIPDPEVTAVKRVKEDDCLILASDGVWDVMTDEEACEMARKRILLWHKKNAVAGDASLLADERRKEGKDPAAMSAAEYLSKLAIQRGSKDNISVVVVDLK"}
{"Change": "I12Q", "relative binding score [%]": 5.47}
{"Change": "L166P", "relative binding score [%]": 11.1}
{"Change": "F56D", "relative binding score [%]": 1.58}
{"Change": "L29F", "relative binding score [%]": -1.78}
{"Change": "S26Q", "relative binding score [%]": -1.74}
{"Change": "A158V", "relative binding score [%]": 53.3}
{"Change": "H16C", "relative binding score [%]": -0.338}
{"Change": "L93N", "relative binding score [%]": 5.24}
{"Change": "R74Y", "relative binding score [%]": -3.96}
{"Change": "Y18S", "relative binding score [%]": 0.334}
{"Change": "E14S", "relative binding score [%]": 2.28}
{"Change": "V142H", "relative binding score [%]": 0.696}
{"Change": "N114T", "relative binding score [%]": -1.73}
{"Change": "D3V", "relative binding score [%]": -0.273}
{"Change": "E139S", "relative binding score [%]": 1.34}
{"Change": "V70C", "relative binding score [%]": 0.257}
{"data": "Series 3", "target": "RNA binding protein fox-1 homolog 2, RRM domain, GST-SBP tag (RBFOX2, Homo sapiens, UniProt O43251-10, residues 100-194)", "method": "RNA Bind-n-Seq", "molecule type": "RNA", "medium": "in vitro", "concentration": "365 nM", "setting": "natural RNA segment, single round, ends assumed", "relative to": "no-protein control", "reading": "higher = stronger binding", "all sequences stand within": "GGGAGUUCUACAGUCCGACGAUC … UGGAAUUCUCGGGUGCCAA", "Construct (chain)": "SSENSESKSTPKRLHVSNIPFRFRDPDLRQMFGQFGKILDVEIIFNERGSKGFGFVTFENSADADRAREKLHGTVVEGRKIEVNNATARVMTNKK"}
{"Strand": "GGACGAUGCCAGCCAGAGCCCCACAGAAGCAGCCAGGGCCUUGCAGCUUUGCCCCAAGCCAAUCCCUGCUUUUAAAUGACCCGCAGCGGGGAGCUCUGAAGAAGGAGCUC", "RBNS enrichment (R)": 0.494}
{"Strand": "GUGCCUGUUACAUAGAGAGGCUCCUUCUGUCCAAAUGAAUUUCUGUAUACUCUUCUAUAAAUAAAAGGGAGGAAUAUAUUCUGCUGGAAGCCCAUGAACCAUCGCUGAGG", "RBNS enrichment (R)": 0.302}
{"Strand": "AUUUUUUUGUAAUUAUUAUAUUCUAGUUUGGAGUACUUGCUGUAGGAUUCAAGCUGUCUUUGCACUAGCUCUAAAGAAGAUUUUCUUCUGGUUUUAGAGAACUAAUUUUG", "RBNS enrichment (R)": 0.899}
{"Strand": "AAGGACUCACAUACAGUGCCUGGAGAAAGCCAAAGACCUUUAUUUCUUCCUGCCUCCCCGUGGGAAGCCUCCGCCCUGAGGUCCGCUGGCCCACCACCCCUGGGUGCUCA", "RBNS enrichment (R)": 0.267}
{"Strand": "AAGUUAUAAGUCAGAUUUAAUUAGCAUCAGAGUUGAUUUUAUAUUAGUCAGAUUUUGGAUCAUCACAGAGAUCUCCACAACUCCUUGGCUUAAACAGCUCCACCGGUAAA", "RBNS enrichment (R)": 0.42}
{"Strand": "UCUUUACUUUUUUAAUAUGUUGGGAUUUUAUUUUAUAUCUGAUGACUCCGAGUGUGUGCCAUCCAUUUGUUAAGUAACUGGCCUUUAGCAGAUCUGUUUCAAAAACAAAU", "RBNS enrichment (R)": 0.912}
{"Strand": "UCAAAAUUUCCUUGAGACUCUUUAGCAUUCAUACUUUGGGGUUAAAGGAGAUUCCUCAGACUCAUCCAGCCCUUGGGUGCUGACCAGCAGAGUCACUAGUGGAUGCUGAA", "RBNS enrichment (R)": 0.272}
{"Strand": "UUAGCAGACUCUUUGUGGACGAGUGAAUUUCACAAACAGCACAAUUUCAGAAGAAAUCGAGGGCACAGGCCCUCACUUUUCUUCUUUUGACGCAUCAUCCUGUGAUGUUG", "RBNS enrichment (R)": 0.547}
{"data": "Series 4", "target": "Interferon regulatory factor 7, full length, phosphomimetic (IRF7, Homo sapiens, UniProt Q92985, residues 1-503, S101K/S471D/S472D/S475D/S476D/S477D/S483D/S484D/S487D)", "method": "protein-binding microarray", "molecule type": "double-stranded DNA, one strand shown", "medium": "in vitro", "concentration": "250 nM", "setting": "60-bp whole probe", "together with": "salmon DNA 0.4 mg/ml", "relative to": "random background probes", "reading": "higher = stronger binding", "all sequences stand within": "GCCTAGCAC … GTCTTGATTCGCTTGACGCTGCTG", "Construct (chain)": "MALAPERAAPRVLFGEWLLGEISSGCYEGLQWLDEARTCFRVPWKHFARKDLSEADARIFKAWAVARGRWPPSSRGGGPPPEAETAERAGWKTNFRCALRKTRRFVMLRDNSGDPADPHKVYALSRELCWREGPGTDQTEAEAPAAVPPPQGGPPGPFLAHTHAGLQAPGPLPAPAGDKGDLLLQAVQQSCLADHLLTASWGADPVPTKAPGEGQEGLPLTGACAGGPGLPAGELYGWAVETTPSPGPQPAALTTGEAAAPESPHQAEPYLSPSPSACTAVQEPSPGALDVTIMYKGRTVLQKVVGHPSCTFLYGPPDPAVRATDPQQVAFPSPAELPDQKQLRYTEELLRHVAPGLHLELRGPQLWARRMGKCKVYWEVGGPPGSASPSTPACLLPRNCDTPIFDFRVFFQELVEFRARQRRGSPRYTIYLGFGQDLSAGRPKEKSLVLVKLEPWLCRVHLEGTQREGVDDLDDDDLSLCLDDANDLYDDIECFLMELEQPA"}
{"Strand": "GACGATTTCCGGTATCGAGACGTGCTA", "log fluorescence": "1.33 z-score"}
{"Strand": "ACCATTTTGGTTTTCCTTATGTGCTAG", "log fluorescence": "0.97 z-score"}
{"Strand": "TCAAGTTTATACCTTAGACTGTGCTAG", "log fluorescence": "0.167 z-score"}
{"Strand": "TTAGTACTGCTACTGCTTTAGTGCTAG", "log fluorescence": "-0.278 z-score"}
{"Strand": "TGAAAATTAGTGTTTGCCCTAGTGCTA", "log fluorescence": "-0.325 z-score"}
{"Strand": "GACCGTTTCCTTTTCCTGACGTGCTAG", "log fluorescence": "4.46 z-score"}
{"Strand": "TCAACTTCCCAATTGTCACTGTGCTAG", "log fluorescence": "1.24 z-score"}
{"Strand": "TTAGGTCTCGGACTCGGTTAGTGCTAG", "log fluorescence": "1.71 z-score"}
{"Strand": "TTAGGTTTCCTTCTCCTTAAGTGCTAG", "log fluorescence": "2.92 z-score"}
{"Strand": "TCATAACTCATTCTCCAACTGTGCTAG", "log fluorescence": "0.686 z-score"}
{"Strand": "TTAGGCATCGGGTATCGGTTAGTGCTA", "log fluorescence": "0.607 z-score"}
{"Strand": "GACGATTCCAGGTTCGAGACGTGCTAG", "log fluorescence": "1.26 z-score"}
{"Strand": "GACGGTCTCGTACTGCTGACGTGCTAG", "log fluorescence": "0.673 z-score"}
{"Strand": "TCAAACTTCCCAATGGTACTGTGCTAG", "log fluorescence": "0.291 z-score"}
{"Strand": "AGTTTATTTATTTTTACATTGTGCTAG", "log fluorescence": "1.18 z-score"}
{"Strand": "ACGCATGTGGGTTCCATCATGTGCTAG", "log fluorescence": "-0.596 z-score"}
{"Strand": "TCAGCTATCACTATTCTACTGTGCTAG", "log fluorescence": "-0.522 z-score"}
{"Strand": "GACGCTTTCGGGTTTCGGGACGTGCTA", "log fluorescence": "3.93 z-score"}
{"Strand": "CACGGTTTCGGTATCGGGACGTGCTAG", "log fluorescence": "10.4 z-score"}
{"note": "Repeated from above (series 2):"}
{"Change": "F56D", "relative binding score [%]": 1.58}
{"Change": "L29F", "relative binding score [%]": -1.78}
{"Change": "S26Q", "relative binding score [%]": -1.74}
{"Change": "A158V", "relative binding score [%]": 53.3}
{"Change": "H16C", "relative binding score [%]": -0.338}
{"Change": "L93N", "relative binding score [%]": 5.24}
{"Change": "R74Y", "relative binding score [%]": -3.96}
{"Change": "Y18S", "relative binding score [%]": 0.334}
{"Change": "E14S", "relative binding score [%]": 2.28}
{"Change": "V142H", "relative binding score [%]": 0.696}
{"Change": "N114T", "relative binding score [%]": -1.73}
